{"data": "Measurements gathered from unrelated publications", "GLP1R": "Glucagon-like peptide 1 receptor (GLP1R, Homo sapiens, UniProt P43220)", "Fsr quorum sensing protein": "Fsr quorum sensing protein (Enterococcus faecalis, UniProt A0ACD6TCR9)", "CNR1": "Cannabinoid receptor 1 (CNR1, Homo sapiens, UniProt P21554)", "note": "Lines come from different studies, so protocols differ. Numbers after ± are the reported error.", "UniProt P21554, sequence (whole entry, looked up)": "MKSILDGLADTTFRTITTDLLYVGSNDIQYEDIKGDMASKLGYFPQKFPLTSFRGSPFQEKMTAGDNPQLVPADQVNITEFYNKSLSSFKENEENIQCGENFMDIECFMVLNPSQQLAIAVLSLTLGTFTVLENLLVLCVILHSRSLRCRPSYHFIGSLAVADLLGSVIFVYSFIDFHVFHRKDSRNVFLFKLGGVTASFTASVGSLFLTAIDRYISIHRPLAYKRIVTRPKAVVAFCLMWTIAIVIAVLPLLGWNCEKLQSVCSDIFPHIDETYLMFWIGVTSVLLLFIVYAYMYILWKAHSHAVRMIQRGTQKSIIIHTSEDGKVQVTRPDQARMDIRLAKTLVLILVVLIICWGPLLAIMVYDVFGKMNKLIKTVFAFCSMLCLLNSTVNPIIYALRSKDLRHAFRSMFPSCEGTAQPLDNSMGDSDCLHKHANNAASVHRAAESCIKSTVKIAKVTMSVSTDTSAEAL", "UniProt P43220, sequence (whole entry, looked up)": "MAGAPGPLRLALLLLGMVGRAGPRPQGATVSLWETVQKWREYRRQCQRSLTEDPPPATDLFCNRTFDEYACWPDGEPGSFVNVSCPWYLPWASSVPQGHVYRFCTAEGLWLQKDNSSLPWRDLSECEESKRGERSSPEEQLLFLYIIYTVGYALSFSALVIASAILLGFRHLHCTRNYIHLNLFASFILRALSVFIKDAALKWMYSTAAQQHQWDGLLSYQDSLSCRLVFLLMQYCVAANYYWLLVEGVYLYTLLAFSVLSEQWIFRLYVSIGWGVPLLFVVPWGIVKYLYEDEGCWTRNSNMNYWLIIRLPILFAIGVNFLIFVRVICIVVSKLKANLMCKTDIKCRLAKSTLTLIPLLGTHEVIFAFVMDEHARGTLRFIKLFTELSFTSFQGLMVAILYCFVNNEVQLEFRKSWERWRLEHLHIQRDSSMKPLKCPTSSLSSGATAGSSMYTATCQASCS", "UniProt Q704Y3, sequence (whole entry, unmodified, looked up)": "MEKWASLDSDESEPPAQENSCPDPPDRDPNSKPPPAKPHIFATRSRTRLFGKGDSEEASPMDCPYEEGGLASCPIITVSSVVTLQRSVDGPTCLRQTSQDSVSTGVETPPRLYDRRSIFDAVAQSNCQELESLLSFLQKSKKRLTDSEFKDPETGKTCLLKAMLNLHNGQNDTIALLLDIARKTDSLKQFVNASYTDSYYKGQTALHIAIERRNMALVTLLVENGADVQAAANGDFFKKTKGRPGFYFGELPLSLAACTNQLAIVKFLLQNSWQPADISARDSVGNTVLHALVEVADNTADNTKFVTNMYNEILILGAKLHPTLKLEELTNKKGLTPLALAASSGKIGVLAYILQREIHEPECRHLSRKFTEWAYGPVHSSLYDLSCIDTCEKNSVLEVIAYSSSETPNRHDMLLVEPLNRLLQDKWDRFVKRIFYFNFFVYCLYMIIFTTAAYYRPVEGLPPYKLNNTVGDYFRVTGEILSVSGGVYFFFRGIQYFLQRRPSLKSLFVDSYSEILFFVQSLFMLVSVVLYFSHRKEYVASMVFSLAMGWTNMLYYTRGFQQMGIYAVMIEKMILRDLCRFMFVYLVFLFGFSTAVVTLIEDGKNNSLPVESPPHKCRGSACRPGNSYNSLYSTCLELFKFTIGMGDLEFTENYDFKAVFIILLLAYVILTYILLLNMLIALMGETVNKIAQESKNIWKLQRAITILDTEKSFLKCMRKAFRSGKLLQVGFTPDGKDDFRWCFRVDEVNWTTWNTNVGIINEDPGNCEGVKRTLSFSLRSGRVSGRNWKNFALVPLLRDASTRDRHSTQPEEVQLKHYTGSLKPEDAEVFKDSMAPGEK", "UniProt Q9HB89, sequence (whole entry, looked up)": "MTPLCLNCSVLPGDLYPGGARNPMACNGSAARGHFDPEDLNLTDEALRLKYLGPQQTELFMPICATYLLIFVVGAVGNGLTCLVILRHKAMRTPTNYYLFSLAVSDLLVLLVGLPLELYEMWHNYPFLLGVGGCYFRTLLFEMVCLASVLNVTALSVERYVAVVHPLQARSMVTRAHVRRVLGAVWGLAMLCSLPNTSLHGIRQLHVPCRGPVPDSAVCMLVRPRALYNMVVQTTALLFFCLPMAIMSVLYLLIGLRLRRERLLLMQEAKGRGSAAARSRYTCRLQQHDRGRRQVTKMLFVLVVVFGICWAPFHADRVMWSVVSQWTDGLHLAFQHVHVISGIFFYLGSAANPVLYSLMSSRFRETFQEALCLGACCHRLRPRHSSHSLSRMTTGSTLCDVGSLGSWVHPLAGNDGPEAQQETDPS", "UniProt Q9UKP6, sequence (whole entry, unmodified, looked up)": "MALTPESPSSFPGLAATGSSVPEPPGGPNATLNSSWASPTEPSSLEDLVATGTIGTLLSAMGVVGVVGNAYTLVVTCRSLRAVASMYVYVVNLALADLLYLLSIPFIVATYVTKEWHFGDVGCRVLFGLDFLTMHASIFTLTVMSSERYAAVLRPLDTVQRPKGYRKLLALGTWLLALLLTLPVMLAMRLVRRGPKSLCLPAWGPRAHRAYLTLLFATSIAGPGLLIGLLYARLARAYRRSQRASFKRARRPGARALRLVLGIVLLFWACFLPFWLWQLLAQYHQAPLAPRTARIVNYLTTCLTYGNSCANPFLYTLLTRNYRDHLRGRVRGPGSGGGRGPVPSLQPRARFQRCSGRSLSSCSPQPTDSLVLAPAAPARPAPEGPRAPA", "UniProt P09874, sequence (whole entry, looked up)": "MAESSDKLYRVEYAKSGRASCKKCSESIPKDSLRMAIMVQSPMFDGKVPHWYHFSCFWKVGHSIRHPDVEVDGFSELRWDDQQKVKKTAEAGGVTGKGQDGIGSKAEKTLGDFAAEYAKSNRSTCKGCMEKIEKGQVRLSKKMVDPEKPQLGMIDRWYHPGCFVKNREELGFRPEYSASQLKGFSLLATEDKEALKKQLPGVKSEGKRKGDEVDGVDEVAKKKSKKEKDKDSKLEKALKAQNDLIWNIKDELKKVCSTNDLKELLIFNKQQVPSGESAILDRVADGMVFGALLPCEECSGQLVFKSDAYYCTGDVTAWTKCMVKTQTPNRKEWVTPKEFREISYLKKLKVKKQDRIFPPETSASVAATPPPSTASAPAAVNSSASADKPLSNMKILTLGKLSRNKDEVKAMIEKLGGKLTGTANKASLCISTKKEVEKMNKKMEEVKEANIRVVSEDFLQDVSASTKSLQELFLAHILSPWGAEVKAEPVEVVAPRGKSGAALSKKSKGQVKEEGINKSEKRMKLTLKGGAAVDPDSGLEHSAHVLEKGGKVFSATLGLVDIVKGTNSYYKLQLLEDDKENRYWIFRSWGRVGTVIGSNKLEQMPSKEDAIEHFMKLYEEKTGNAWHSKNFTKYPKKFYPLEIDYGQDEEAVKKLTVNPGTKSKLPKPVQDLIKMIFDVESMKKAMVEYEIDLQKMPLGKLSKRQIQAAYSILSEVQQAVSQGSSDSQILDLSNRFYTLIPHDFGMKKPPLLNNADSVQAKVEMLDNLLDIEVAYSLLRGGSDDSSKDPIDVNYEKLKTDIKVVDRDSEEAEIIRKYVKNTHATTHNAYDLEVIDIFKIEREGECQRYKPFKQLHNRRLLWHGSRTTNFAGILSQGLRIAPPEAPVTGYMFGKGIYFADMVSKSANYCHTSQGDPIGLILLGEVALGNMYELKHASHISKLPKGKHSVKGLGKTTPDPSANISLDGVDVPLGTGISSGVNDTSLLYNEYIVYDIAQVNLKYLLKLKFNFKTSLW", "UniProt Q8TDU6, sequence (whole entry, looked up)": "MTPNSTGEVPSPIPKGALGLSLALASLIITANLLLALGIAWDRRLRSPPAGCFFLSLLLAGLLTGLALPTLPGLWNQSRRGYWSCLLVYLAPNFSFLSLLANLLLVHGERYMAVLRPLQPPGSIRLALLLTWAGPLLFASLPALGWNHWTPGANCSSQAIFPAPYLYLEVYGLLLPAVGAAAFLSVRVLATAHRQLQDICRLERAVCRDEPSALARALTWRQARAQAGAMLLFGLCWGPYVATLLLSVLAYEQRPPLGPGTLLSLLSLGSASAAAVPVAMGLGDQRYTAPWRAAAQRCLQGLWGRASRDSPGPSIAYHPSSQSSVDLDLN", "UniProt P08172, sequence (whole entry, looked up)": "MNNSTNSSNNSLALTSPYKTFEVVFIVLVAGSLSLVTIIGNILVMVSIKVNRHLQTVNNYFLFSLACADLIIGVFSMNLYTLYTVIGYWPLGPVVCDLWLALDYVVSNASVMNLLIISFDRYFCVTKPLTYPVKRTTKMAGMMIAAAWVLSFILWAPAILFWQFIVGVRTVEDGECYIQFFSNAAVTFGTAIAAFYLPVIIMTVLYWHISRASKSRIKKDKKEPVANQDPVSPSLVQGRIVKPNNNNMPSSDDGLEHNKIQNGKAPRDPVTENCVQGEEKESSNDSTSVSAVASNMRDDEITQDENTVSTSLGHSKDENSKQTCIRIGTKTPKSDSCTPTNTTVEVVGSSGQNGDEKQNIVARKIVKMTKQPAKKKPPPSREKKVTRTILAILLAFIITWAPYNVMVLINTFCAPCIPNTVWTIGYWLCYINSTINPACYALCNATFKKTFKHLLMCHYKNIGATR", "UniProt P48546, sequence (whole entry, looked up)": "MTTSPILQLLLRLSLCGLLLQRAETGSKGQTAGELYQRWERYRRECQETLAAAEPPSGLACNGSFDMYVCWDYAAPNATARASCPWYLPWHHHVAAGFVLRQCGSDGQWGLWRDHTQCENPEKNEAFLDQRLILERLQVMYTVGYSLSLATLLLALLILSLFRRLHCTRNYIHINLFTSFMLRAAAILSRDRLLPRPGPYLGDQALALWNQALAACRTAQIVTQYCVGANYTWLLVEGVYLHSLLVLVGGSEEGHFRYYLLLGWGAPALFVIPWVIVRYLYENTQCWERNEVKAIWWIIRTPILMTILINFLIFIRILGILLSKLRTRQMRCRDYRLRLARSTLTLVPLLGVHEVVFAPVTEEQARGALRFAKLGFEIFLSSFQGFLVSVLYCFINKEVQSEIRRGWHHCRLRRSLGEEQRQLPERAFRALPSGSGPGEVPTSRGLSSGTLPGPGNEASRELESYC"}
{"Compound": "CCCCC/C=C\\C/C=C\\C/C=C\\C/C=C\\CCCC(=O)NCCc1ccc(O)c(O)c1", "target": "Trpv1 (Mus musculus, UniProt Q704Y3, T551S)", "assay": "ion current, agonist, whole-cell patch clamp", "conditions": "24 °C, T551S, +80 mV", "EC50 [nM]": "140 ± 70"}
{"Compound": "O=C(c1cc(Cc2n[nH]c(=O)c3ccccc23)ccc1F)N1CC(CNC2CC2)C1", "target": "PARP1 (Homo sapiens, UniProt P09874)", "EC50 [nM]": 2.2}
{"Compound": "CC[C@H](C)[C@H](NC(=O)[C@H](Cc1ccccc1)NC(=O)[C@H](CCC(=O)O)NC(=O)[C@H](CCCCN)NC(=O)[C@H](C)NC(=O)[C@H](C)NC(=O)[C@H](CCC(N)=O)NC(=O)CNC(=O)[C@H](CCC(=O)O)NC(=O)[C@H](CC(C)C)NC(=O)[C@H](Cc1ccc(O)cc1)NC(=O)[C@H]1CNC[C@@H]1NC(=O)[C@H](CO)NC(=O)C(C)(C)NC(=O)[C@H](CC(=O)O)NC(=O)[C@H](CO)NC(=O)[C@@H](NC(=O)[C@H](Cc1ccccc1)NC(=O)[C@@H](NC(=O)CNC(=O)[C@H](CCC(=O)O)NC(=O)[C@H](C)NC(=O)[C@@H](N)Cc1c[nH]cn1)[C@@H](C)O)[C@@H](C)O)C(=O)N[C@@H](C)C(=O)N[C@@H](Cc1c[nH]c2ccccc12)C(=O)N[C@@H](CC(C)C)C(=O)N[C@H](C(=O)N[C@@H](CCCCN)C(=O)NCC(=O)N[C@@H](CCCNC(=N)N)C(N)=O)C(C)C", "target": "GLP1R", "assay": "cAMP, agonist, luciferase", "EC50 [nM]": 0.0631}
{"Compound": "CC[C@H](C)[C@@H]1NC(=O)[C@H](CC(N)=O)NC(=O)[C@@H]2CCCN2C(=O)[C@@H](NC(=O)[C@H](CC(N)=O)NC(=O)[C@@H](N)CCC(N)=O)COC(=O)CN(CCSC)C(=O)[C@H](Cc2c[nH]c3ccccc23)NC(=O)[C@H](CCC(N)=O)NC(=O)CNC(=O)[C@H](Cc2ccccc2)NC1=O", "target": "Fsr quorum sensing protein", "assay": "Fsr quorum sensing, agonist, β-galactosidase reporter", "EC50 [nM]": "> 10000"}
{"Compound": "CC(=O)N[C@@H](Cc1c[nH]cn1)C(=O)N[C@@H](C)C(=O)N[C@@H](CCC(=O)O)C(=O)NCC(=O)N[C@H](C(=O)N[C@@H](Cc1ccccc1)C(=O)N[C@H](C(=O)N[C@@H](CO)C(=O)N[C@@H](CC(=O)O)C(=O)N[C@H](C(=O)N[C@@H](CO)C(=O)N[C@@H](CO)C(=O)N[C@@H](Cc1ccc(O)cc1)C(=O)N[C@@H](CC(C)C)C(=O)N[C@@H](CCC(=O)O)C(=O)NCC(=O)N[C@@H](CCC(N)=O)C(=O)N[C@@H](C)C(=O)N[C@@H](C)C(=O)N[C@@H](CCCCN)C(=O)N[C@@H](CCC(=O)O)C(=O)N[C@@H](Cc1ccccc1)CN(CC(=O)N[C@@H](C)C(=O)N[C@@H](Cc1c[nH]c2ccccc12)CN(CC(=O)N[C@H](C(=O)N[C@@H](CCCCN)CN(CC(=O)N[C@@H](CCCNC(=N)N)C(=O)N[C@@H](CCCCN)CN(CC(N)=O)S(C)(=O)=O)S(C)(=O)=O)C(C)C)S(=O)(=O)CC(C)C)S(=O)(=O)CC(C)C)C(C)C)[C@@H](C)O)[C@@H](C)O", "target": "GLP1R", "assay": "reporter gene, agonist, luciferase", "EC50 [nM]": "> 1000"}
{"Compound": "CC(CCC(=O)NCC(=O)O)C1CCC2C3CCC4CC(O)CCC4(C)C3CCC12C (centres unmarked)", "target": "GPBAR1 (Homo sapiens, UniProt Q8TDU6)", "assay": "agonist", "EC50 [nM]": "290 ± 90"}
{"Compound": "CC(C)[C@H](NC(=O)[C@@H]1CSSC(C)(C)[C@H](NC(=O)[C@@H](N)CC(=O)O)C(=O)N[C@@H](Cc2ccccc2)C(=O)N[C@@H](Cc2c[nH]c3ccccc23)C(=O)N[C@@H](CCCCN)C(=O)N[C@@H](Cc2ccc(O)cc2)C(=O)N1)C(=O)O", "target": "UTS2R (Homo sapiens, UniProt Q9UKP6, L234A)", "assay": "IP1 accumulation, agonist, HTRF", "system": "HEK293T", "conditions": "1 h, 37 °C, L234A mutant, 5.61", "EC50 [nM]": 0.398}
{"Compound": "CCCCCn1ccc(C(=O)NC(C)(C)c2ccc(C)cc2)n1", "target": "CNR1", "assay": "calcium signal, agonist", "EC50 [nM]": 127}
{"Compound": "CC[C@H](C)[C@H](NC(=O)[C@H](Cc1ccccc1)NC(=O)[C@H](CCC(=O)O)NC(=O)[C@H](CCCCN)NC(=O)[C@H](C)NC(=O)[C@H](C)NC(=O)[C@H](CCC(N)=O)NC(=O)CNC(=O)[C@H](CCC(=O)O)NC(=O)[C@H](CC(C)C)NC(=O)[C@H](Cc1ccc(O)cc1)NC(=O)[C@H](CO)NC(=O)[C@H](CO)NC(=O)[C@@H](NC(=O)[C@H](CC(=O)O)NC(=O)[C@H](CO)NC(=O)[C@@H](NC(=O)[C@H](Cc1ccccc1)NC(=O)[C@@H](NC(=O)CNC(=O)[C@H](CCC(=O)O)NC(=O)[C@H](C)NC(=O)[C@@H](N)Cc1c[nH]cn1)[C@@H](C)O)[C@@H](C)O)C(C)C)C(=O)N[C@@H](C)C(=O)N[C@@H](Cc1c[nH]c2ccccc12)CN(CC(=O)N[C@H](C(=O)N[C@@H](CCCCN)CN(CC(=O)N[C@@H](CCCNC(=N)N)C(=O)N[C@@H](CCCCN)CN(CC(N)=O)S(C)(=O)=O)S(C)(=O)=O)C(C)C)S(=O)(=O)CC(C)C", "target": "GLP1R", "assay": "reporter gene, agonist, luciferase", "EC50 [nM]": 52.5}
{"Compound": "CCCCCCCCCCCCCCCCCC(=O)NC[C@H]1CC[C@H](C(=O)N[C@@H](CCC(=O)NCCCOCCOCCOCCCNC(=O)COCC(=O)N[C@@H](Cc2ccc(O)cc2)C(=O)NC(C)(Cc2ccccc2)C(=O)N[C@@H](CC(C)C)C(=O)N[C@@H](CCCC)C(=O)N[C@@H](CCCNC(=N)N)C(=O)N2CCC[C@H]2C(=O)N[C@@H](CCCNC(=N)NC)C(=O)N[C@@H](CC(N)=O)C(N)=O)C(=O)O)CC1 (some centres unmarked)", "target": "NMUR1 (Homo sapiens, UniProt Q9HB89)", "assay": "inositol phosphate, agonist, TR-FRET", "EC50 [nM]": "> 10000"}
{"Compound": "CCCCCn1ccc(C(=O)NC(C)(C)c2ccc(C#N)cc2)n1", "target": "CNR1", "assay": "calcium signal, agonist", "EC50 [nM]": 216}
{"Compound": "O=C(O)CCn1c(=O)oc2cc(Cl)c(Cl)cc21", "target": "CHRM2 (Homo sapiens, UniProt P08172)", "assay": "agonist", "EC50 [nM]": "> 50100"}
{"Compound": "CCCCCCCCCCCCCCCC(=O)N[C@@H](CCC(=O)NCCCC[C@H](NC(=O)[C@H](CC(=O)O)NC(=O)[C@H](CO)NC(=O)[C@@H](NC(=O)[C@H](Cc1ccccc1)NC(=O)[C@@H](NC(=O)CNC(=O)[C@H](CCC(N)=O)NC(=O)[C@H](C)NC(=O)[C@H](Cc1c[nH]cn1)NCC(F)(F)F)[C@@H](C)O)[C@@H](C)O)C(=O)N[C@@H](CO)C(=O)N[C@@H](CCCCN)C(=O)N[C@@H](Cc1ccc(O)cc1)C(=O)N[C@@H](CC(C)C)C(=O)N[C@@H](CC(=O)O)C(=O)N[C@@H](CCC(=O)O)C(=O)N[C@@H](CCCNC(=N)N)C(=O)N[C@@H](C)C(=O)N[C@@H](C)C(=O)N[C@@H](CCC(N)=O)C(=O)N[C@@H](CC(=O)O)C(=O)N[C@@H](Cc1ccccc1)C(=O)N[C@H](C(=O)N[C@@H](CCC(N)=O)C(=O)N[C@@H](Cc1c[nH]c2ccccc12)C(=O)N[C@@H](CC(C)C)C(=O)N[C@@H](CC(C)C)C(=O)N[C@@H](CC(=O)O)C(=O)NCC(=O)NCC(=O)N1CCC[C@H]1C(=O)N[C@@H](CO)C(=O)N[C@@H](CO)C(=O)NCC(=O)N[C@@H](C)C(=O)N1CCC[C@H]1C(=O)N1CCC[C@H]1C(=O)N1CCC[C@H]1C(=O)N[C@@H](CO)C(N)=O)C(C)C)C(=O)O", "target": "GIPR (Homo sapiens, UniProt P48546)", "assay": "reporter gene, agonist, luciferase", "EC50 [nM]": 0.00316}
{"Compound": "CCCCCn1ccc(C(=O)NC(C)(C)c2ccccc2F)n1", "target": "CNR1", "assay": "calcium signal, agonist", "EC50 [nM]": 25.3}
{"Compound": "CC[C@H](C)[C@@H]1NC(=O)[C@H](CC(N)=O)NC(=O)[C@@H]2CCCN2C(=O)[C@@H](NC(=O)[C@H](CC(N)=O)NC(=O)CNCCC(N)=O)COC(=O)[C@H](CCSC)NC(=O)[C@H](Cc2c[nH]c3ccccc23)NC(=O)[C@H](CCC(N)=O)NC(=O)CNC(=O)[C@H](Cc2ccccc2)NC1=O", "target": "Fsr quorum sensing protein", "assay": "Fsr quorum sensing, agonist, β-galactosidase reporter", "EC50 [nM]": 0.641}
{"Compound": "CCCCCn1ccc(C(=O)NC(C)(C)c2ccc(N)cc2)n1", "target": "CNR1", "assay": "calcium signal, agonist", "EC50 [nM]": 118}
{"Compound": "CC[C@H](C)[C@H](NC(=O)[C@H](Cc1ccccc1)NC(=O)[C@H](CCC(=O)O)NC(=O)[C@H](CCCCN)NC(=O)[C@H](C)NC(=O)[C@H](C)NC(=O)[C@H](CCC(N)=O)NC(=O)CNC(=O)[C@H](CCC(=O)O)NC(=O)[C@H](CC(C)C)NC(=O)[C@H](Cc1ccc(O)cc1)NC(=O)[C@H](CO)NC(=O)[C@H](CO)NC(=O)[C@@H](NC(=O)[C@H](CC(=O)O)NC(=O)[C@H](CO)NC(=O)[C@@H](NC(=O)[C@H](Cc1ccccc1)NC(=O)[C@@H](NC(=O)CNC(=O)[C@H](CCC(=O)O)NC(=O)[C@H](C)NC(=O)[C@H](Cc1c[nH]cn1)NC(C)=O)[C@@H](C)O)[C@@H](C)O)C(C)C)C(=O)N[C@@H](C)C(=O)N[C@@H](Cc1c[nH]c2ccccc12)CN(CC(=O)N[C@H](C(=O)N[C@@H](CCCCN)CN(CC(=O)N[C@@H](CCCNC(=N)N)C(=O)N[C@@H](CCCCN)CN(CC(N)=O)S(C)(=O)=O)S(C)(=O)=O)C(C)C)S(=O)(=O)CC(C)C", "target": "GLP1R", "assay": "reporter gene, agonist, luciferase", "EC50 [nM]": 157}
{"note": "Some of these lines once more:"}
{"Compound": "CC(=O)N[C@@H](Cc1c[nH]cn1)C(=O)N[C@@H](C)C(=O)N[C@@H](CCC(=O)O)C(=O)NCC(=O)N[C@H](C(=O)N[C@@H](Cc1ccccc1)C(=O)N[C@H](C(=O)N[C@@H](CO)C(=O)N[C@@H](CC(=O)O)C(=O)N[C@H](C(=O)N[C@@H](CO)C(=O)N[C@@H](CO)C(=O)N[C@@H](Cc1ccc(O)cc1)C(=O)N[C@@H](CC(C)C)C(=O)N[C@@H](CCC(=O)O)C(=O)NCC(=O)N[C@@H](CCC(N)=O)C(=O)N[C@@H](C)C(=O)N[C@@H](C)C(=O)N[C@@H](CCCCN)C(=O)N[C@@H](CCC(=O)O)C(=O)N[C@@H](Cc1ccccc1)CN(CC(=O)N[C@@H](C)C(=O)N[C@@H](Cc1c[nH]c2ccccc12)CN(CC(=O)N[C@H](C(=O)N[C@@H](CCCCN)CN(CC(=O)N[C@@H](CCCNC(=N)N)C(=O)N[C@@H](CCCCN)CN(CC(N)=O)S(C)(=O)=O)S(C)(=O)=O)C(C)C)S(=O)(=O)CC(C)C)S(=O)(=O)CC(C)C)C(C)C)[C@@H](C)O)[C@@H](C)O", "target": "GLP1R", "assay": "reporter gene, agonist, luciferase", "EC50 [nM]": "> 1000"}
